Results from different studies.
A part holds a random share of what one study measured. Changes are numbered by the printed parent chain.

Set 1
Target: ABI1, truncated, D143A, DHFR fusion (Arabidopsis thaliana)
Technique: DHFR PCA, deep sequencing
Medium: yeast
Notes: methotrexate growth selection, single substitutions
Added: (+)-ABA 1.4 µM
Reference: wild-type fitted maximum
Reading: higher = stronger binding
Starting sequence: PYL1, truncated, DHFR fusion (Arabidopsis thaliana); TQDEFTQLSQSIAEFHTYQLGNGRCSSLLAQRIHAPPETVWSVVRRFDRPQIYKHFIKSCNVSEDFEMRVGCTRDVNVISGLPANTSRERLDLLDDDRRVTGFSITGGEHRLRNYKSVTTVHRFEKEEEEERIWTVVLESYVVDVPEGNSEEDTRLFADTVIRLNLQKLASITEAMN
| Substitution | relative binding score [%] |
| --- | --- |
| D144A | -0.0764 |
| I52G | 6.74 |
| K126G | 77.8 |
| T120S | 75.2 |
| Y141R | -4.7 |
| L112I | -10.4 |
| E67R | 37.3 |
| D65M | 20.5 |
| E67C | 40 |
| L156V | 49.9 |
| S117F | -9.8 |
| F103N | -3.22 |
| P146H | 2.83 |
| E127G | 60.9 |
| R32F | 28 |
| N22K | 65 |
| V143W | -15.8 |
| K116L | -5.16 |
| H122S | 0.347 |
| T1A | 64.5 |
| A175E | 49 |
| K116S | 53.5 |
| N22A | 69.3 |
| L8E | -6.61 |

Set 2
Target: CCNF, cyclin fold, Cln2 fusion (human)
Technique: yeast growth competition, sequencing
Medium: yeast
Notes: strong parent motif
Reference: not given
Reading: higher = stronger binding
Starting sequence: CDKN1B docking peptide (human); PSACRNLFGPVDH
| Substitution | normalised enrichment score |
| --- | --- |
| H13F | 7.51 |
| D12G | 7.37 |
| V11A | 7.08 |
| P10H | 5.77 |
| L7A | -0.0223 |
| P1I | 7.76 |
| S2F | 5.2 |
| P10F | 7.92 |
| P1Q | 7.6 |
| G9K | 4.04 |
| V11W | 7.77 |
| N6I | 5.08 |
| V11Q | 6.24 |
| G9S | 3.41 |

Set 3
Target: Phosphate system positive regulatory protein PHO4, full length, GST-tagged (PHO4, Saccharomyces cerevisiae, UniProt P07270, residues 1-312)
Technique: competition protein-binding microarray
Molecule type: double-stranded DNA, one strand shown
Medium: in vitro
Tested at: 2 µM
Notes: whole 60-bp probe, lowest competitor level
Added: Cbf1 competitor, 0.05 µM
Reading: higher = stronger binding
Construct (chain): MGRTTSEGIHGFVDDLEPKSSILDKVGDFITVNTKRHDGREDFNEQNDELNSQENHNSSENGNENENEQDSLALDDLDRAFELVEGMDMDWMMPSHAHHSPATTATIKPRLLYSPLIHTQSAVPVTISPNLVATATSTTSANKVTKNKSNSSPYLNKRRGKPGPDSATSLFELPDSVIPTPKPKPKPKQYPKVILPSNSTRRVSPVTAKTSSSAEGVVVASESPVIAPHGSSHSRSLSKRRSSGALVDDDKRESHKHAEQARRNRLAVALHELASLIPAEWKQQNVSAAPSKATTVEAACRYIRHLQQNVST
| Sequence | fluorescence intensity [a.u.] |
| --- | --- |
| TGCGAAATTTGAGTACACGTGAGTCAGTCAGTCGGCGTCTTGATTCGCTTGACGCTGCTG | 13000 |
| CTAACGAAGGTTTGACTTGTGGGTGACAAGCCAAGTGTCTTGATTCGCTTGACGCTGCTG | 4120 |
| CGGGGTTAAGTTTGGGGAGTGGGTGGCTTGCAGCAGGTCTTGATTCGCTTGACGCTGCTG | 5180 |
| TGCGCAACAACTTGGAATGTGGGTGTATGTCTAGAAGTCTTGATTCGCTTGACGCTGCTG | 7010 |
| TGCTCTCGAAGCCGTCACGTGCGGATCTAGGCCTGCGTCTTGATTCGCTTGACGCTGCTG | 17100 |
| GTCTTGTCTCATTGAACGGTGGGTGTCCCCACTTCAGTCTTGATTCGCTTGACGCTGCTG | 4470 |
| TTCAACTCACATTTGCACGATGCAAGCCAATGGAAAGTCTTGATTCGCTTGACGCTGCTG | 10300 |
| TCGGTCCTTAAAAGTCAGCTGACTGGGGCCGTCGCTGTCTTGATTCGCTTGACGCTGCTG | 1780 |
| CATACCCAACCTTGTCACGCGACTTAAGATATTTGTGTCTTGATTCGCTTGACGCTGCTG | 10200 |
| AAGGCAATCAGGATGCACGTCGCCGTAAGATTGCAAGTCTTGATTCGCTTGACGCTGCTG | 6150 |
| ACCAGTAAACTCTGTCATGTGACGGTGGGTGTTGGAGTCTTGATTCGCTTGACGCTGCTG | 7640 |
| CTTCTGTAAATTTGATAGGTGGGTGGACGCGCCCCGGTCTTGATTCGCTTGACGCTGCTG | 4270 |
| AGTCTGTGCTAGTCCCACGTGTGAATGCCAAGGTTGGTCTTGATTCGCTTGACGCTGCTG | 17900 |
| GAAGTCGCCAGGGTGCGCGGGCACTCAGGGTAAGAGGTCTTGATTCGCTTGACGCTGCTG | 4630 |
| GGGAGGGAAGACTGGAACGTGCAAAGAAGCTATTCGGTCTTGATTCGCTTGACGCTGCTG | 12600 |
| CTAACGAAGGTTTGACTCGTGGGTGACAAGCCAAGTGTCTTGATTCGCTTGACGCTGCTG | 9590 |
| AACTATCTGAAAATTCACGTGATGGTCATTTGAGTAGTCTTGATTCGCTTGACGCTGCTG | 13200 |
| CGCCATTACGACAATCACATGGTTGTTAAATCGCGGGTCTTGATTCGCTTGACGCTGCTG | 9000 |
| TGCCGCATTTCTTCCCGCGTGGCAACTTCTGCGTACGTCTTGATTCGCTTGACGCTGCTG | 8870 |

Set 4
Target: Hepatocyte nuclear factor 3-beta, forkhead domain (FOXA2, Homo sapiens, UniProt Q9Y261, residues 142-269)
Technique: protein-binding microarray
Molecule type: double-stranded DNA, one strand shown
Medium: in vitro
Tested at: not given
Notes: k-mer, scored over probes, only values ≥0.25
Reading: higher = stronger binding
Construct (chain): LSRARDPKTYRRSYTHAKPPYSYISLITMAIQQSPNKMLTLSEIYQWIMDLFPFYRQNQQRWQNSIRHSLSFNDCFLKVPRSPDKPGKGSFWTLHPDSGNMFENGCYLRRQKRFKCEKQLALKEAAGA
| Sequence | E-score |
| --- | --- |
| ATTGTTGA | 0.354 |
| ATTCTATA | 0.252 |
| ATCATCAT | 0.257 |
| ATCACAAT | 0.254 |
| ATTACTTA | 0.281 |
| TGTAAACA | 0.462 |
| CACGGATA | 0.286 |
| AAACACAG | 0.267 |
| ATATTAAT | 0.265 |
| ATCTGTTA | 0.257 |
| TATGCACA | 0.331 |
| CTTGTGTA | 0.324 |
| TATTCCGA | 0.275 |
| ATAATTTA | 0.289 |
| AATATGCT | 0.307 |
| CATACTCA | 0.279 |
| TATGTACA | 0.41 |
| AATGTGAA | 0.309 |

Some of these lines once more (set 3):
| Sequence | fluorescence intensity [a.u.] |
| --- | --- |
| TCGGTCCTTAAAAGTCAGCTGACTGGGGCCGTCGCTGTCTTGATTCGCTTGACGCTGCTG | 1780 |
| CATACCCAACCTTGTCACGCGACTTAAGATATTTGTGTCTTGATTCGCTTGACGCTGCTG | 10200 |
| AAGGCAATCAGGATGCACGTCGCCGTAAGATTGCAAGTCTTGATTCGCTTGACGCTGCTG | 6150 |
| ACCAGTAAACTCTGTCATGTGACGGTGGGTGTTGGAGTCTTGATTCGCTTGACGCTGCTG | 7640 |
| CTTCTGTAAATTTGATAGGTGGGTGGACGCGCCCCGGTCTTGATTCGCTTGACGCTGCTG | 4270 |
| AGTCTGTGCTAGTCCCACGTGTGAATGCCAAGGTTGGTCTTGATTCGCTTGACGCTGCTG | 17900 |
| GAAGTCGCCAGGGTGCGCGGGCACTCAGGGTAAGAGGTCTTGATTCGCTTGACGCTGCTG | 4630 |
| GGGAGGGAAGACTGGAACGTGCAAAGAAGCTATTCGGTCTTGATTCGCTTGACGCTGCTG | 12600 |
| CTAACGAAGGTTTGACTCGTGGGTGACAAGCCAAGTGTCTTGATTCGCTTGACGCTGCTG | 9590 |
| AACTATCTGAAAATTCACGTGATGGTCATTTGAGTAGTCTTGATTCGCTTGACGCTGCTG | 13200 |
| CGCCATTACGACAATCACATGGTTGTTAAATCGCGGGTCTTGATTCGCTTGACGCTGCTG | 9000 |
